# Measured values of several laboratories.
# A part holds a random share of what one study measured. Changes are numbered by the printed parent chain.

# Study 1 — method: RNA Bind-n-Seq; molecule type: RNA; matrix: in vitro; concentration: 365 nM; relative to: no-protein control; direction: higher = stronger binding
# Target: RNA binding protein fox-1 homolog 2, RRM domain, GST-SBP tag (RBFOX2, Homo sapiens, UniProt O43251-10, residues 100-194)
# Notes: natural RNA segment, single round, ends assumed
# Constant ends, left off below: GGGAGUUCUACAGUCCGACGAUC … UGGAAUUCUCGGGUGCCAA
# Target sequence (chain): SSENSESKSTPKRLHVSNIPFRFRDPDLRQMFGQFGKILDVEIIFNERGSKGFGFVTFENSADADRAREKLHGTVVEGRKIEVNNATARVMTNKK
Sequence,RBNS enrichment (R)
CUCUUCAAAAAAUUUGCAUGUCUGCUGUGAAUUUUCAUCUAGUUCCCCAAUCGAUGCUCUCAGGGUCAUCUCGGGGAUCACAGGGAUCCUUAAAUCUCCAUUCUGUUUGU,0.996
GGAGCAGAAGCCGGAGUGGCGGGGCACGCUGCCGCCUUCCCCAUCACGGAGGGUCCAGACUGUCCACUCGGGGGUGGAGUGAGACUGACUGCAAGCCCCACCCUCCUUGA,1.03
GGCUCCUCCUGGGGAGGACUUUUGUCACUCUUCAGCCAAGAAGCAGCUCUGUGCACCUGUGUGUGAUACCUCACACUCGUGCUUUGUCCUCCACUGUCUAUGUAGGUUGU,0.303
GGAGCUGGAUCUGACCCUGAUUGGGGAGAGCUGAGUGCUGAGCCUUGGGAGCCCCUGCCAGCCACCUGCACCUGUGGACAGUGGGUGGGGGCACUACUCCCCACUCAGAG,0.734
UCCCCAUCCUGAUGCUUUCAUGUUGGUUCCUGACACAUGGUCUGGCUUUGGGUUUGAAGGGCAAGGGUGGCUGUGAACCACCCCCACCCAGCCGUCAGGCCCGCUUCGUC,0.298
UAUGCGGAGACUGAUACAUUUUCUUAAUGGACAAUGUUCAAGCCAGGUACCCAUGCUUGAUCUGUCUUCACACCAGACCUCCUCAUAUUAAAAGGAAAAAUAAGAAAAAA,0.569
GGCCACCCUGCCCAGGACCCAGGCCCGCCUCCCCCUCCACACUCAGGAUGUCCUGCUCCAUCUGGCCGGCUCACUCCGUGUGGCCUGCCUUUGCUGACCGUUUUGGGGUU,0.338
CAUACAGCAGCCCCCUGGACAGAAUCAGCAUUUCAGCUCAGCUGGCCUGGGAUGGGCCAGGCUGGUCCUGGCUGCCUGUUCCCUGUGCUCUUCAGAAUUACUGUUUUUGU,0.375
GGCACCUGUCCCUCCUCUCCCCUCACCCUACACUUGUUCCAGCUCUUUGAAAUAGUUUGUGUGAAGGUGAAAGUGCAGUUCAGUAAUAAAUGGUGUCUGUGACUCUGUGA,0.327
CUGGUUAGCCAUUCCCUCACUCUCUGUUCCCUCCUGCGUGCCUGCAUUUCCUAUAGACAGGUUAAAUUUUGGGUUGAAAGUUUUGUGGGUGGGUUGGUGUCUCUUAUCGC,0.616
AAAAUGGUAUCUUACUGACUCUGUUUACUUAUGUGUACAAUUCUGGAAAAUAAAUUUUUUUAUUCUACCACUGUUGAAACACUUUGUCAUCUUAAAAAUUCUUGAAAAUU,0.386
UUUCACCACUGGUCAAAUUUUAACCAUUAAAUUGCCAUUCACUUUUAGAAUCUUGUAUUUAAGUUUUGAUUUUCAAAUGUUCUGCUUCAUGUGUCUGUGAAGAAUUGUAC,0.599

# Study 2 — target: ATF5, bZIP domain (human); method: DHFR protein complementation; matrix: yeast; relative to: wild-type JUN-FOS pair; direction: higher = stronger binding
# Notes: single substitutions, most at no-binding floor
# Starting sequence: JUN, bZIP domain (human); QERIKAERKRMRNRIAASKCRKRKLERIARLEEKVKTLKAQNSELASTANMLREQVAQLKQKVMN; partner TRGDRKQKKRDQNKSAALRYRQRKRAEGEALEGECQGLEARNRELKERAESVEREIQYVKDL
Variant,binding fitness [natural log]
K36H,-1.5
M51W,-1.48
K39M,-1.46
A49N,-1.45
L45I,-1.49
K36C,-1.55
L38S,-1.42
V56S,-1.49
S43K,-0.981
A29S,-1.37
T37A,-1.37
A57V,-1.52
Q41T,-1.52
I28E,-1.32
R53V,-1.49
M51R,-1.42

# Study 3 — target: CCNA1, cyclin fold, Cln2 fusion (human); method: yeast growth competition, sequencing; matrix: yeast; notes: weak parent motif; relative to: not given; direction: higher = stronger binding
# Starting sequence: DNAH7 docking peptide (human); HELFQRLDFDNDG
Variant,normalised enrichment score
HELAQRLDFDNDG [F4A],-0.118
HELFQALDFDNDG [R6A],0.0157
HELFQRLDADNDG [F9A],0.157
HELFARLDFDNDG [Q5A],-0.0767
HELFQRLDFDNDA [G13A],-0.0366
HELFQRADFDNDG [L7A],0.151
HELFQRLAFDNDG [D8A],-0.22

# Study 4 — method: RNA Bind-n-Seq; molecule type: RNA; matrix: in vitro; concentration: 200 nM; notes: whole 134-nt RNA, ends assumed; together with: 150 mM LiCl; relative to: input library; direction: higher = stronger binding; all molecules: 7-deaza-guanosine replaces G
# Target: Ras GTPase-activating protein-binding protein 1, full length (G3BP1, Homo sapiens, UniProt Q13283)
# Sequence of UniProt Q13283 (whole entry, looked up): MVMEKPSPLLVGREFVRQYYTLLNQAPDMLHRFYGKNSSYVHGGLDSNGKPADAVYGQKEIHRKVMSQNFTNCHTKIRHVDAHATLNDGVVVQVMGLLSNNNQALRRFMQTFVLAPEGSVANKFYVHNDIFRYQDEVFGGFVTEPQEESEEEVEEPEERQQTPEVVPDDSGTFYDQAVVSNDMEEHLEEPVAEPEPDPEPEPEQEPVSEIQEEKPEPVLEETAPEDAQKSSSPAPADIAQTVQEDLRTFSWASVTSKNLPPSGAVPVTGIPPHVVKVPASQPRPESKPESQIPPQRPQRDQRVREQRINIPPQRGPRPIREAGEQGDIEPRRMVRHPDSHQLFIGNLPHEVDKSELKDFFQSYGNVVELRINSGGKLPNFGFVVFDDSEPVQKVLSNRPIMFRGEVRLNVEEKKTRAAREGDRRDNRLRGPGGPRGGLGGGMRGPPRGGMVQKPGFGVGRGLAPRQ
# Constant ends, left off below: GGGAGUUCUACAGUCCGACGAUC … UGGAAUUCUCGGGUGUCAAGG
Sequence,log2 enrichment
AGUCCUGUGCUACACAUCGUAUGUACCGAAUCAAACCCAAACCCAAACCCCCCCAAAAAAGUAUUAUGUUACGCCGUUCGGAUCUGCACU,0.0786
GCAGGAAGUAAAAACAAAUGGAAAUGCUUCGGAUAGUGGCAGGGGUGGGGGUUGCUAAGGAAAGGGUGGGAUGGGAGUGGGUAAGGAGUU,-0.141
UCCUCAAGUCCUGUGCUACACAUCGUAUGUACCGAAUCGGAGGAGGGGAGGAAAGUAUUAUGUUACGCCGUUCGGAUCUGCACUUCCAGC,-1.73
CUGUGCUACACAUCGUAUGUACCGAAUCGGGGCCCCCCCGGCCCCCCCGGGCCCCCCCGGGAAAGUAUUAUGUUACGCCGUUCGGAUCUG,1.15
UGCACACCGCCUUGCACAUAGCAGAGGCUCCGGGCUCACUCCUUCCUGGUGGGAAAGGAAGAUGCCUGUCCUCUCCGUGGAAGACCCUGG,-0.168
CACAGACAACACGCACCCACACAGACACAGAGGGAAGGGGUUGGGACGGGGACAGGGUGCACAGCAGGGCGGGGUAGGACCCCAGCCCCU,0.523
GUCCUGUGCUACACAUCGUAUGUACCGAAUCGGUUUUUGGAAAAAAAGGAAAAAAAGGAAAGUAUUAUGUUACGCCGUUCGGAUCUGCAC,-1.96
UCCUGUGCUACACAUCGUAUGUACCGAAUCAAAUUUUUUUAAACCCCCAAACCCCCAAAAAAGUAUUAUGUUACGCCGUUCGGAUCUGCA,0.954
CACAGACAACACGCACCCACACAGAAACAGAGGGAAGGGGUUGGGAUGGGGACAGGGUGCACAGCAGGGCGGGGUAGGACCCCAGCCCCU,0.522
UGGUAUUCAUGGGUAGUUUGAAAUAUCCAGAUGAGAAUGGAUUUGAUGCCUUCCUGAAGAAGCAUGGGGGUAGUGAUAAUGCCUCAACUG,-1.29
CUCAAGUCCUGUGCUACACAUCGUAUGUACCGAAUCGGCCGGGGCCGGCCGGGAAAGUAUUAUGUUACGCCGUUCGGAUCUGCACUUCCA,0.593

# Study 5 — method: protein binding microarray; molecule type: double-stranded DNA, one strand shown; matrix: in vitro; concentration: not given; relative to: not given; direction: higher = stronger binding
# Target: Histone acetyltransferase KAT6A, winged helix 1, GST fusion (KAT6A, Homo sapiens, UniProt Q92794, residues 1-85)
# Notes: 8-mer, flanks averaged, mean of 2 arrays, mostly near background
# Residues (chain): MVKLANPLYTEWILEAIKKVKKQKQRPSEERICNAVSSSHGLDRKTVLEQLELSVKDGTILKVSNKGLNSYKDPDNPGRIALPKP
Sequence,E-score
GGGGGATA,-0.0578
GTGTCCTA,0.0628
CCTTCTAG,-0.109
AAACATAG,-0.176
CTAGCGGC,0.399
CGGCGTCA,0.335
AGGGGCGA,0.0961
ACTCCTAC,-0.133
GCTGCCAA,-0.0604
ACATGTGC,0.0455
GCTGATTA,0.0569
CTTTCTCA,0.0678
TCATACCA,-0.098
CCGACGAC,0.134
GCCTTCCA,-0.109
ACGTATAG,-0.0407
AGGAGGCC,-0.117
CCATCTAC,-0.0648

# Study 6 — method: DHFR PCA, deep sequencing; matrix: yeast; together with: (+)-ABA 58 µM; relative to: wild-type fitted maximum; direction: higher = stronger binding
# Target: ABI1, truncated, D143A, DHFR fusion (Arabidopsis thaliana)
# Notes: methotrexate growth selection, single substitutions
# Starting sequence: PYL1, truncated, DHFR fusion (Arabidopsis thaliana); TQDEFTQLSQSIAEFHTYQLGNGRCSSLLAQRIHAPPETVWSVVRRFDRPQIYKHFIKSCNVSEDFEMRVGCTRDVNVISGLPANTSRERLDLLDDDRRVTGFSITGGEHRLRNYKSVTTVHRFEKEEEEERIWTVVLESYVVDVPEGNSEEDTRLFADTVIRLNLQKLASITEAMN
Variant,relative binding score
L93K,75.1%
V136S,20.3%
H122R,11.5%
H122K,18.8%
S11A,91.8%
L8D,4.51%
R99G,65.2%
C25Y,-12.5%
W134K,69.8%
E130N,92.2%
Q2G,59.6%
N177P,77.2%
C60H,-7.03%
L91C,61.6%
F47I,-6.27%
L8T,54.6%
E139R,0.359%
L91S,19.8%
I133D,98.3%
K116M,40.6%
S150D,76.9%

# Further values, each from its own experiment
Substance,target,assay,test system,setting,how to read,quantity,value
"PhoQ, residues 284 288 289 292 302 303 TLSLKA","PhoP, residues 12 14 15 18 19 LYHSL (Escherichia coli, UniProt P23836)","Sort-seq, refers to: YFP reporter",E. coli,"PhoQ-PhoP variant library, together with: 10 µM Mg2+","relative to: high Mg2+ state, higher = stronger signaling",fold induction,1
